Measurements collected from several papers.
Numbers after ± are the reported error. Non-standard residues stand in square brackets, D forms with d. No end group written: not given here.
PIM1: Serine/threonine-protein kinase pim-1 (PIM1, Homo sapiens, UniProt P11309)
Sequence of UniProt P11309 (whole entry, looked up): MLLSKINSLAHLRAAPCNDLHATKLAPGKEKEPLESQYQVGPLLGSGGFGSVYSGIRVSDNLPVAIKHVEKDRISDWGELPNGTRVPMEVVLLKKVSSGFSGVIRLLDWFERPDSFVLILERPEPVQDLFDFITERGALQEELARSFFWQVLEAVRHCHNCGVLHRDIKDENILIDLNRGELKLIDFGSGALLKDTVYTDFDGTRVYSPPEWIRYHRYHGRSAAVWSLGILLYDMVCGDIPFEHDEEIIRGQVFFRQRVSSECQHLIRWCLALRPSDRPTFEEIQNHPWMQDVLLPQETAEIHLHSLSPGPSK
Sequence of UniProt P05804 (whole entry, looked up): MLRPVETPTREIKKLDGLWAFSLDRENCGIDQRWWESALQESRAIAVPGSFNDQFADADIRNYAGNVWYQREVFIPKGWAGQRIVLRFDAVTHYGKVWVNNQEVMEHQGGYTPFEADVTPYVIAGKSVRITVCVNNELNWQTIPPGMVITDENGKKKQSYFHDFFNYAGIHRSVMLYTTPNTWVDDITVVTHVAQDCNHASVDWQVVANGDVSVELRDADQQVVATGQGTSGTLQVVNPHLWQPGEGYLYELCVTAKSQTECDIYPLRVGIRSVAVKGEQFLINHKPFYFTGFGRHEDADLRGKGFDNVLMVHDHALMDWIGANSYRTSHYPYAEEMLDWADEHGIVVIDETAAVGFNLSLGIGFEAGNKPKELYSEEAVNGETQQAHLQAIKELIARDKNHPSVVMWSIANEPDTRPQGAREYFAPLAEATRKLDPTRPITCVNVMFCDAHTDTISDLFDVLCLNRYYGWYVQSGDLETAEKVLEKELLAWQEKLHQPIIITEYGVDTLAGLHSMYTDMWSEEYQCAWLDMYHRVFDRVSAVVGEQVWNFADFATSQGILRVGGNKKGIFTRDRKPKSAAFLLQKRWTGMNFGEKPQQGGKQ
Sequence of UniProt O95497 (whole entry, unmodified, looked up): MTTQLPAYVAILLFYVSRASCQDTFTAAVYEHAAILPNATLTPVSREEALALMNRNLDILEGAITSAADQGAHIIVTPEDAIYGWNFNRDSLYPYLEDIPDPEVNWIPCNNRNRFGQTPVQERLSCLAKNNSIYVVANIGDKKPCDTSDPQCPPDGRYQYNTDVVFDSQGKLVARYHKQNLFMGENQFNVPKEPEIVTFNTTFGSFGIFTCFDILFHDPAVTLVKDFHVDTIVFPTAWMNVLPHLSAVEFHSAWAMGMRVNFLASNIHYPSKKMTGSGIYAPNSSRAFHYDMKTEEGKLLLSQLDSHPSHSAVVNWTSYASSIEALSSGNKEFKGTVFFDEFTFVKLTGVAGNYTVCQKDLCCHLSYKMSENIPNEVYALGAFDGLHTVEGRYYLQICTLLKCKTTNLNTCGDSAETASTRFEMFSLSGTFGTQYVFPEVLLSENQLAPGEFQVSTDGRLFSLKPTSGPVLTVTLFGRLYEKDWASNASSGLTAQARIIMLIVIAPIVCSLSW
Sequence of UniProt O95476 (whole entry, looked up): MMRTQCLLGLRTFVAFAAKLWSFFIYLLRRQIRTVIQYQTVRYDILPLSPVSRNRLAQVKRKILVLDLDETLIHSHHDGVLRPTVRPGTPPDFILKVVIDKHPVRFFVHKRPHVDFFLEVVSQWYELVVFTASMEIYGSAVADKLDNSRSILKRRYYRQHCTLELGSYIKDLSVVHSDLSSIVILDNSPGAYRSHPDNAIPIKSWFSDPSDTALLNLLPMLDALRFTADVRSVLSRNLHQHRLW
Sequence of UniProt P19111 (whole entry, looked up): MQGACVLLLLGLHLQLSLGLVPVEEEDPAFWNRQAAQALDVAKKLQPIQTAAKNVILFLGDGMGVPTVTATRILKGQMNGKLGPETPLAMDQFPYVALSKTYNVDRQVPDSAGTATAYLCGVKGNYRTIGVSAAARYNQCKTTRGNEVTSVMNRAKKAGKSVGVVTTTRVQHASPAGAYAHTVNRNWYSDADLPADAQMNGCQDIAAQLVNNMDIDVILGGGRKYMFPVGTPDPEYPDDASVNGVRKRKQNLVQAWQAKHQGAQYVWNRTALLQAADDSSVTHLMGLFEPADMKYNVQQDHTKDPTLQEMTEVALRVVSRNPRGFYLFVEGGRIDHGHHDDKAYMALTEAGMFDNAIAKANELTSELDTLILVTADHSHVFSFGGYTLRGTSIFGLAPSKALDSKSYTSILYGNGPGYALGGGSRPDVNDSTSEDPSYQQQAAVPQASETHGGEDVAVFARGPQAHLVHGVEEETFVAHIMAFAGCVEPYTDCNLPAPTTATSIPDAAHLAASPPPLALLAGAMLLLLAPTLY

[Na+].[Na+].[Na+].[O]=[V]([O-])([O-])[O-]
Km (ALPI (Bos taurus, UniProt P19111); 0.084 µM, added: DiFMUP substrate): 0.17 ± 0.02 µM

RYRHPTPMYY
Km (PIM1; substrate, coupled enzyme; peptide; pH 7.4, room temperature, added: 1 mM ATP, 20 mM MgCl2): 200 ± 26 µM

O=[N+]([O-])c1ccc(OP(=O)(O)O)cc1
Km (Trypanosoma evansi protein-tyrosine phosphatase; 37 °C, added: pNPP substrate): 3440 µM

O=[N+]([O-])c1ccc(OP(=O)(O)O)cc1
Km (alkaline phosphatase; substrate; Lymnaea acuminata, nervous tissue; 37 °C, no inhibitor): 20.2 µM

O=C(O)CCS
Km (Azotobacter vinelandii MDO H157N; substrate; 37 °C, added: O2): 12 ± 2 µM

N=C(N)NCCC[C@H](N)C(=O)Nc1ccc2ccccc2c1
Km (cathepsin H (Bubalus bubalis lung); substrate, 2-naphthylamine release; pH 6.5, 37 °C): 322 µM

RYRHPTRMYY
Km (PIM1; substrate, coupled enzyme; peptide; pH 7.4, room temperature, added: 1 mM ATP, 20 mM MgCl2): 24 ± 2 µM

HSGTESQAKHCIPEKNHTLQ
Km (PTPN22 (Homo sapiens, UniProt Q9Y2R2); enzyme activity; peptide; 25 nM, pH 6.0, added: DiFMUP): 4.1 ± 0.2 µM

CC(C)(CO)[C@@H](O)C(=O)NCCC(=O)NCCS
Km (Pantetheinase (VNN1, Homo sapiens, UniProt O95497); hydrolysis, substrate, refers to: pantothenic acid; 15 min, 37 °C): 74.1 ± 41.5 µM

DNMNT[pS]EDE (phospho-Ser6; pS = N[C@@H](COP(=O)(O)O)C(=O)O)
Km (CTD nuclear envelope phosphatase 1 (CTDNEP1, Homo sapiens, UniProt O95476); substrate, MESG-coupled phosphate release; 25 °C): ~15000 µM

CC(=O)OC[C@H](N)C(=O)O
Km (Trichomonas vaginalis cysteine synthase 1; substrate; pH 7.8, 37 °C, added: 3 mM sodium sulphide): 39500 ± 2900 µM

O=C(O)CCCCCCCCCCCCC(=O)O
Km (Marasmius rotula unspecific peroxygenase; substrate, GC-MS; added: H2O2): 557 ± 295 µM

COc1ccc(CO)cc1OC
Km (lignin peroxidase; substrate; pH 2.5, added: H2O2 0.4 mM): 2000 µM

C[C@H](N)C(=O)O
Km (ALAS/AONS fusion (mouse, E. coli); substrate, coupled spectrophotometric; pH 7.5, 30 °C, AONS site, added: pimeloyl-CoA): 250 ± 50 µM

RYAHPTGMYY
Km (PIM1; substrate, coupled enzyme; peptide; pH 7.4, room temperature, added: 1 mM ATP, 20 mM MgCl2): > 600 µM

C/C1=C2/N[C@H]([C@H](CC(N)=O)[C@@]2(C)CCC(=O)NC[C@@H](C)OP(=O)(O)O[C@H]2[C@@H](O)[C@@H](n3cnc4cc(C)c(C)cc43)O[C@@H]2CO)[C@]2(C)N=C(/C(C)=C3N=C(/C=C4N=C1[C@@H](CCC(N)=O)C\4(C)C)[C@@H](CCC(N)=O)[C@]\3(C)CC(N)=O)[C@@H](CCC(N)=O)[C@]2(C)CC(N)=O.[Co]
Km (cobA (Limosilactobacillus reuteri, UniProt Q50EJ2, F112A); enzyme activity, substrate; anoxic, Ti(III) citrate reduced, added: ATP): 1.9 ± 0.5 µM

Cc1cc(=O)oc2cc(O[C@@H]3O[C@H](C(=O)O)[C@@H](O)[C@H](O)[C@H]3O)ccc12
Km (Beta-glucuronidase (uidA, Escherichia coli, UniProt P05804); enzyme activity, substrate): 102 µM

O=[N+]([O-])c1ccccc1O[C@@H]1O[C@H](CO)[C@H](O)[C@H](O)[C@H]1O
Km (beta-D-galactosidase (Paenibacillus sp. 3179); substrate; pH 7.4, 50 °C, rough estimate, not saturated): 570 ± 120 µM

A few entries again:
COc1ccc(CO)cc1OC
Km (lignin peroxidase; substrate; pH 2.5, added: H2O2 0.4 mM): 2000 µM

C[C@H](N)C(=O)O
Km (ALAS/AONS fusion (mouse, E. coli); substrate, coupled spectrophotometric; pH 7.5, 30 °C, AONS site, added: pimeloyl-CoA): 250 ± 50 µM
